Published values of several laboratories.
A part holds a random share of what one study measured.
Chain of UniProt Q99759 (whole entry, looked up): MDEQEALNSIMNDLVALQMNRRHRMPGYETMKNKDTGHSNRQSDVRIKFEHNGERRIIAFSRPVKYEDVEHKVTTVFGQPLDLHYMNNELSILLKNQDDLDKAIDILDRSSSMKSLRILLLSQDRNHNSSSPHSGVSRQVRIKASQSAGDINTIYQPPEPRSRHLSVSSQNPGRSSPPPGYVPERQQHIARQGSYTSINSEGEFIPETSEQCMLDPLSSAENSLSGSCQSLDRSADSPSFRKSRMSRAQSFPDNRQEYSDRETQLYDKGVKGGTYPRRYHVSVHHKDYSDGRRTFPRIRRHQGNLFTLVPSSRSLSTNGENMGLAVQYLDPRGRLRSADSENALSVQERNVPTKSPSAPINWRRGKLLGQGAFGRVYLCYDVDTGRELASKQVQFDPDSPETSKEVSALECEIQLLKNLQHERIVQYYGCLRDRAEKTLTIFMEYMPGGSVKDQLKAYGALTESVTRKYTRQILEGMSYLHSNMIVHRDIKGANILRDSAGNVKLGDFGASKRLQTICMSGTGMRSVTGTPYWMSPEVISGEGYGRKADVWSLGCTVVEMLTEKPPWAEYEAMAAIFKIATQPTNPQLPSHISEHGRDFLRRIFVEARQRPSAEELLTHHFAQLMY
Chain of UniProt Q96D53 (whole entry, looked up): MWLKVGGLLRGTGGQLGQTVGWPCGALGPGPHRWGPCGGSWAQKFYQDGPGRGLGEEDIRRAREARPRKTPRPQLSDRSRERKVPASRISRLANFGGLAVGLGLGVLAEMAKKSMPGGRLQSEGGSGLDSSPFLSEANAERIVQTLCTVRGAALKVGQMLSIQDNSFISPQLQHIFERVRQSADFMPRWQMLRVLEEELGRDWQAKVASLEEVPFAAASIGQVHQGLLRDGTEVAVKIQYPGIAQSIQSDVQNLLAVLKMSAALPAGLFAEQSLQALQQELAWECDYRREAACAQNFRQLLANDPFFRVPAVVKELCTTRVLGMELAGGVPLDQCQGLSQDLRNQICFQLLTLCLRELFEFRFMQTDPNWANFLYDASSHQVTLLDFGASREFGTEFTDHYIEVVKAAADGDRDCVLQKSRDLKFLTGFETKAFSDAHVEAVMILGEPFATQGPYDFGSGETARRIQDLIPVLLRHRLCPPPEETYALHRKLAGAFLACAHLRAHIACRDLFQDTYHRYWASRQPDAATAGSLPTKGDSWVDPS
Chain of UniProt Q9BWU1 (whole entry, looked up): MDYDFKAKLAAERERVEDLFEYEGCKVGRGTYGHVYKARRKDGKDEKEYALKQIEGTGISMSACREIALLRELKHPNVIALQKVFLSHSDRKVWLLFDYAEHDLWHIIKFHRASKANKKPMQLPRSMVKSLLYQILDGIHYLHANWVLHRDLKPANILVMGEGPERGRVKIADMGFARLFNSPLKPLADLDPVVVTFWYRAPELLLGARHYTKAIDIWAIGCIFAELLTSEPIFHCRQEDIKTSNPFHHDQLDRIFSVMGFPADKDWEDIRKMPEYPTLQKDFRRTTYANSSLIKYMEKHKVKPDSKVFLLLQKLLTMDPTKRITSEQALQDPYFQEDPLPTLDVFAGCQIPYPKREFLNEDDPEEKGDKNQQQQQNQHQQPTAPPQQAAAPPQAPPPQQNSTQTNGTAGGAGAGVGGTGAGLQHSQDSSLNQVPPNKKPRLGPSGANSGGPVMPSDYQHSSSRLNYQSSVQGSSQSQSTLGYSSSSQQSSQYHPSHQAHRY
Chain of UniProt O14965 (whole entry, looked up): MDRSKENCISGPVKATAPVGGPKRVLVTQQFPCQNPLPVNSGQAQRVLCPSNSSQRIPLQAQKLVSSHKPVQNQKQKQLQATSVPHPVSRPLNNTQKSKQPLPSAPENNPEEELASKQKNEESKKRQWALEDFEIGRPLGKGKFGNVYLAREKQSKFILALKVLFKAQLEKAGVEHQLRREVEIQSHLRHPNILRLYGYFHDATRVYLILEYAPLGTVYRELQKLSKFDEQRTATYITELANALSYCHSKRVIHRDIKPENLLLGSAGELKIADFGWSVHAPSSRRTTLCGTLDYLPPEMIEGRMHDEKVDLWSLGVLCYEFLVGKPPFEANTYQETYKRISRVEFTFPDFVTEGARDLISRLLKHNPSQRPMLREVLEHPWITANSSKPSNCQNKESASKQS
Chain of UniProt Q6ZN16 (whole entry, looked up): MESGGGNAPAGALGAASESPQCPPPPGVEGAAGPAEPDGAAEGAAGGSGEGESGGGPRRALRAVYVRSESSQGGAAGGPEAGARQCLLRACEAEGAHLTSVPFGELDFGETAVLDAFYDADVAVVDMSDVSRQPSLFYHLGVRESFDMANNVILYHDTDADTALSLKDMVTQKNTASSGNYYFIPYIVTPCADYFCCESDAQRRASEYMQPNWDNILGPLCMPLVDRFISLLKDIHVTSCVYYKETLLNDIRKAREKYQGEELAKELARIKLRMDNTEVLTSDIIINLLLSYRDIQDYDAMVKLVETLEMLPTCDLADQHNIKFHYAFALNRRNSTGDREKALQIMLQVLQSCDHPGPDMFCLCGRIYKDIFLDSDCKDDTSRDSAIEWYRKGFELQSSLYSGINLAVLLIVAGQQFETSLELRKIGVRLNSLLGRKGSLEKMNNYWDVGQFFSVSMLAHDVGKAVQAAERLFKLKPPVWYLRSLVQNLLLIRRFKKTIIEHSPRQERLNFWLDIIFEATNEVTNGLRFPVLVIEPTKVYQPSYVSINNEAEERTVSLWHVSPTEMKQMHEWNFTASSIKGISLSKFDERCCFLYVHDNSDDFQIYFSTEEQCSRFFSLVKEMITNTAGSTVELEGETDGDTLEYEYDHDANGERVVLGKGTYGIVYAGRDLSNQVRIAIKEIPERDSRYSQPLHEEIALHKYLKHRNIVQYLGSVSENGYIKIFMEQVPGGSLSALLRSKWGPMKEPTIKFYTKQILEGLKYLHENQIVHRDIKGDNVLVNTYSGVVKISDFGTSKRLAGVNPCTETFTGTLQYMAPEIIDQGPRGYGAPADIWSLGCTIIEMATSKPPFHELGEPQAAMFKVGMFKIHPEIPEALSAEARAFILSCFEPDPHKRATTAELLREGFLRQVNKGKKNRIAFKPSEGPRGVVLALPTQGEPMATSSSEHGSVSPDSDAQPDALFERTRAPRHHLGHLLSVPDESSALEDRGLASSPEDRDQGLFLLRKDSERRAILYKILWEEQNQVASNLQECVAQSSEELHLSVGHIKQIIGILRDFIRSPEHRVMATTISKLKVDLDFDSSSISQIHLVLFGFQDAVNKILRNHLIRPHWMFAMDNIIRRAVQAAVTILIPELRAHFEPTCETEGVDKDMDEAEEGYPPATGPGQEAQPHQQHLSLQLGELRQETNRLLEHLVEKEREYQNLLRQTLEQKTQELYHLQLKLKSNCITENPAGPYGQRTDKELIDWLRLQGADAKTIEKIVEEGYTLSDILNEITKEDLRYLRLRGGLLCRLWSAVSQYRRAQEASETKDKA
Chain of UniProt Q96GD4 (whole entry, looked up): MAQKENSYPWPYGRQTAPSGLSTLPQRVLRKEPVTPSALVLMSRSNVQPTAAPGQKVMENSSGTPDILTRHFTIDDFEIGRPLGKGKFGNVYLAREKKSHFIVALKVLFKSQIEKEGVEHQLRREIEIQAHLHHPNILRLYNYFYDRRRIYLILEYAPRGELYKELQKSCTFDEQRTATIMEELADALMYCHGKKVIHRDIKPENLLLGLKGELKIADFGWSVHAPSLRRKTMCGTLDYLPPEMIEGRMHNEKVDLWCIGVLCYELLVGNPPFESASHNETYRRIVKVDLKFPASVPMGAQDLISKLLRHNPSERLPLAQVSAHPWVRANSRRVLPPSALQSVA
Chain of UniProt Q9BXA7 (whole entry, looked up): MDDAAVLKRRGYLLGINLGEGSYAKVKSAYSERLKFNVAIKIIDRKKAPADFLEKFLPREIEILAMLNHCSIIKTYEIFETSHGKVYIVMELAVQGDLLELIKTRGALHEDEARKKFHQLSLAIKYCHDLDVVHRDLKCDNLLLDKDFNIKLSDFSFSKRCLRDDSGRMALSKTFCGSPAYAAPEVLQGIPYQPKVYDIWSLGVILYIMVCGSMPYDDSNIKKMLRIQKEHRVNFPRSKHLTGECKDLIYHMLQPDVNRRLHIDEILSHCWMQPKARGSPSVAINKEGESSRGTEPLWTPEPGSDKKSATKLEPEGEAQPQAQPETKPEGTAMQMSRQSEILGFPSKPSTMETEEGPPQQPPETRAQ

Series 1 — concentration: 1 µM
SMILES: CN([C@@H]1CCc2c(CC(=O)O)c3ccccc3n2C1)S(=O)(=O)c1ccc(F)cc1
| target | read-out | method | remaining binding |
| --- | --- | --- | --- |
| HASPIN (Homo sapiens, UniProt Q8TF76) | cell-free assay | competition with immobilised ligand | 100% |
| MAP4K2 (Homo sapiens, UniProt Q12851) | cell-free assay | competition with immobilised ligand | 87% |
| CDK19 (Homo sapiens, UniProt Q9BWU1) |  | competition binding | 94% |
| MET (Homo sapiens, UniProt P08581, M1250T) | cell-free assay | competition with immobilised ligand | 100% |
| EGFR (Homo sapiens, UniProt P00533, T790M) | cell-free assay | competition with immobilised ligand | 100% |
| MAP3K3 (Homo sapiens, UniProt Q99759) | cell-free assay | competition with immobilised ligand | 100% |

Series 2 — host: mouse; medium: microsomes or S9; concentration: 2 µM; time: 0.5 h
| Compound | remaining compound [%] |
| --- | --- |
| Cc1ncc(S(=O)(=O)NCCc2nccnc2C)s1 | > 100 |
| NS(=O)(=O)c1ccc(CCNS(=O)(=O)Cc2ccccc2Cl)cc1 | 86.9 |
| CNc1nc(NC2CCOC2c2ccc(F)c(F)c2)ncc1Br (centres unmarked) | 1.87 |
| CN(C)C(=O)c1sc(Cl)nc1S(N)(=O)=O | 54.2 |
| COc1cc(OC)c2[nH]c(C(=O)OCc3ncc(Cl)n3C)cc2c1 | 0.342 |
| COc1cc(OC)c(-c2[nH]nc3c2C(=O)CCC3)cc1OC | 27.1 |

Series 3 — SMILES: O=C(Nc1ccccc1)Nc1cccc(Oc2ccc3nccn3n2)c1; method: competitive binding panel; concentration: 1 µM; relative to: vehicle
| target | refers to | remaining binding |
| --- | --- | --- |
| MAP3K15 (Homo sapiens, UniProt Q6ZN16) |  | 100% |
| COQ8B (Homo sapiens, UniProt Q96D53) | ADCK4 | 82% |
| Aurora kinase B (AURKB, Homo sapiens, UniProt Q96GD4) |  | 92% |
| TSSK1B (Homo sapiens, UniProt Q9BXA7) |  | 100% |
| Aurora kinase A (AURKA, Homo sapiens, UniProt O14965) |  | 100% |

Series 4 — read-out: enzyme activity; mode: inhibitor; concentration: 0.5 µM; relative to: control
Target: Tyrosine-protein kinase Yes (YES1, Homo sapiens, UniProt P07947)
Chain of UniProt P07947 (whole entry, looked up): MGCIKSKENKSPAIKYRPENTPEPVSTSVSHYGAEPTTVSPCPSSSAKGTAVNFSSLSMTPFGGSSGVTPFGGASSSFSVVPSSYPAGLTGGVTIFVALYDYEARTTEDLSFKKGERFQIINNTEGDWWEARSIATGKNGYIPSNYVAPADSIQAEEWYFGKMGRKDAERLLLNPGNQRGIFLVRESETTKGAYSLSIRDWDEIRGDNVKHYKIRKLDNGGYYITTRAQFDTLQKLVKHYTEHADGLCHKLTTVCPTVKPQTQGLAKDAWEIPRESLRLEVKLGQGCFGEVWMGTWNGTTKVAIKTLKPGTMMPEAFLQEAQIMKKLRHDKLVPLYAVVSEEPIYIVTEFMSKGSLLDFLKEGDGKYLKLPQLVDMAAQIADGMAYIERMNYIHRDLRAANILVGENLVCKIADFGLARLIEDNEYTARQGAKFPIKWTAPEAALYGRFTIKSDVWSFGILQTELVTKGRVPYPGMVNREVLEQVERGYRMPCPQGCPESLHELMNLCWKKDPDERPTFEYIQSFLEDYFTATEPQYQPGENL
| SMILES | remaining activity [%] |
| --- | --- |
| COc1ccc(C(=O)Nc2sc3c(c2C(N)=O)CCCC3)cc1OC | 88.3 |
| O=C(CCCc1ccc(-c2ccccc2F)cc1)Nc1ccc(O)cc1 | 110 |
| Nc1ncnc2n[nH]c(Nc3ccc(F)cc3)c12 | 92.9 |
| CC(C)[C@H](CO)Nc1nc(Nc2cc(N)cc(Cl)c2)c2ncn(C(C)C)c2n1 | 7.03 |
| O=c1c2ccccc2[nH]c(=S)n1CCN1CCC(=C(c2ccc(F)cc2)c2ccc(F)cc2)CC1 | 99.2 |
| Oc1ccc(-c2nc(-c3ccncc3)c(-c3ccc(F)cc3)[nH]2)cc1 | 84.7 |
| Cn1sc(=O)n(Cc2ccccc2)c1=O | 96.3 |
| COc1ccc(CNC(=O)Nc2ncc([N+](=O)[O-])s2)cc1 | 96.1 |
| Cc1nc(-c2ccccc2)c(-c2ccncc2)o1 | 101 |
| CO[C@H]1C[C@@H]2CC[C@@H](C)[C@@](O)(O2)C(=O)C(=O)N2CCCC[C@H]2C(=O)O[C@H]([C@H](C)C[C@@H]2CC[C@@H](O)[C@H](OC)C2)CC(=O)[C@H](C)/C=C(\C)[C@@H](O)[C@@H](OC)C(=O)[C@H](C)C[C@H](C)/C=C/C=C/C=C/1C | 101 |
| N#CC(C#N)=C(N)/C(C#N)=C/c1ccc(O)cc1 | 100 |
| CCOC(=O)c1c(C)[nH]c(/C=C2\C(=O)Nc3ccccc32)c1C | 68.3 |
| COc1cc2ncnc(Nc3ccc(Oc4ccccc4)cc3)c2cc1OC | 7.96 |
| Cc1ccc(NC(=O)c2ccc(CN3CCN(C)CC3)cc2)cc1Nc1nc(-c2cccnc2)cs1 | 50.7 |
| Nc1ccc2ncnc(NCCc3ccc(Oc4ccccc4)cc3)c2c1 | 112 |

Excerpt of the above (series 1):
| target | read-out | method | remaining binding |
| --- | --- | --- | --- |
| CDK19 (Homo sapiens, UniProt Q9BWU1) |  | competition binding | 94% |
| HASPIN (Homo sapiens, UniProt Q8TF76) | cell-free assay | competition with immobilised ligand | 100% |
